{"data": "Measured values pooled from the literature", "note": "A part holds a random share of what one study measured."}
{"data": "Block 1", "target": "Sal-like protein 4, full length isoform B (SALL4, Homo sapiens, UniProt Q9UJQ4-2, residues 1-616)", "technique": "universal PBM", "form": "double-stranded DNA, one strand shown", "medium": "in vitro", "tested at": "not given", "notes": "8-mer, flanks averaged, mean of replicates", "reading": "higher = stronger binding", "Construct (chain)": "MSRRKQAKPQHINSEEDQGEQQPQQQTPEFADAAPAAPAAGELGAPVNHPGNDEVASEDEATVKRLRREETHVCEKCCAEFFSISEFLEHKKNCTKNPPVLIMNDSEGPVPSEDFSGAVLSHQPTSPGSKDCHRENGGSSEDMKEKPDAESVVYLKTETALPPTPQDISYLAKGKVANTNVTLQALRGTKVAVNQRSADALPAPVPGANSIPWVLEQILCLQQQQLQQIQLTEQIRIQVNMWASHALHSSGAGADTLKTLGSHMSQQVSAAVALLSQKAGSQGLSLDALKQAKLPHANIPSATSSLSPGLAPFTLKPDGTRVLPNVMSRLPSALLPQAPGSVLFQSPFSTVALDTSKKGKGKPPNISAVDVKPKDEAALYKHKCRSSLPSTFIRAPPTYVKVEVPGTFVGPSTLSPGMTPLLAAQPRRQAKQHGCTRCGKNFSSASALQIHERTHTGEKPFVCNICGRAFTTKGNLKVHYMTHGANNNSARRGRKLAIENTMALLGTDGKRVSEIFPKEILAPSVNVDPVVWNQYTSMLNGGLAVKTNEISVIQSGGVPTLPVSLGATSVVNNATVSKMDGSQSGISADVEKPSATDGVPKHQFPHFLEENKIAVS"}
{"Sequence": "ATCCACGG", "E-score": -0.193}
{"Sequence": "ACGTGTCT", "E-score": 0.0813}
{"Sequence": "CGGAAACC", "E-score": -0.316}
{"Sequence": "GAGTCGAA", "E-score": -0.101}
{"Sequence": "AGCACGAC", "E-score": -0.291}
{"data": "Block 2", "target": "Histone acetyltransferase KAT6A, both winged helices, GST fusion (KAT6A, Homo sapiens, UniProt Q92794, residues 1-181)", "technique": "protein binding microarray", "form": "double-stranded DNA, one strand shown", "medium": "in vitro", "tested at": "not given", "notes": "8-mer, flanks averaged, mean of 2 arrays, mostly near background", "reference": "not given", "reading": "higher = stronger binding", "Residues (chain)": "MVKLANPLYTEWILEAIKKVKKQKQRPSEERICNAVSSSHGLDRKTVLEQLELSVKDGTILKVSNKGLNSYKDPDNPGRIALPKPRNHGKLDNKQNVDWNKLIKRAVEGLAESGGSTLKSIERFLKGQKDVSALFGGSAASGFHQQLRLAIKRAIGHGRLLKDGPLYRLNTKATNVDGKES"}
{"Sequence": "CCTGTACG", "E-score": -0.0365}
{"Sequence": "GAATGTCC", "E-score": 0.0245}
{"Sequence": "CCCCTTGA", "E-score": -0.111}
{"Sequence": "ATTGATCC", "E-score": 0.0453}
{"Sequence": "AAGGGAGT", "E-score": -0.255}
{"data": "Mixed results", "MNT bHLH-zipper, MAX partner unstated": "Max-binding protein MNT, bHLH-zipper, MAX partner unstated (MNT, Homo sapiens, UniProt Q99583, residues 220-300)", "MXD1 bHLH-zipper, MAX partner unstated": "Max dimerization protein 1, bHLH-zipper, MAX partner unstated (MXD1, Homo sapiens, UniProt Q05195, residues 56-136)", "sequence of UniProt Q05195 (56-136, looked up)": "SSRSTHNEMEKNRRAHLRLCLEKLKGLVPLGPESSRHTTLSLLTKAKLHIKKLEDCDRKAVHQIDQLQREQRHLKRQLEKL", "sequence of UniProt Q99583 (220-300, looked up)": "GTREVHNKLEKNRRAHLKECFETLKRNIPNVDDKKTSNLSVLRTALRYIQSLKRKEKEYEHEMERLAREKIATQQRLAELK"}
{"Molecule": "CCGTCACG", "target": "MNT bHLH-zipper, MAX partner unstated", "test": "protein-binding microarray", "system": "double-stranded DNA, one strand shown, in vitro", "conditions": "not given, k-mer, scored over probes, only values ≥0.25", "scale": "higher = stronger binding", "measurement": "E-score", "value": 0.278}
{"Molecule": "PhoQ, residues 284 288 289 292 302 303 TSTLRA", "target": "PhoP, residues 12 14 15 18 19 IFFTR (Escherichia coli, UniProt P23836)", "test": "Sort-seq, refers to: YFP reporter", "system": "E. coli", "conditions": "PhoQ-PhoP variant library, with: 10 µM Mg2+", "scale": "reference: high Mg2+ state, higher = stronger signaling", "measurement": "fold induction", "value": 1.58}
{"Molecule": "CCATGAGG", "target": "MNT bHLH-zipper, MAX partner unstated", "test": "protein-binding microarray", "system": "double-stranded DNA, one strand shown, in vitro", "conditions": "not given, k-mer, scored over probes, only values ≥0.25", "scale": "higher = stronger binding", "measurement": "E-score", "value": 0.391}
{"Molecule": "TCGTGGCA", "target": "MXD1 bHLH-zipper, MAX partner unstated", "test": "protein-binding microarray", "system": "double-stranded DNA, one strand shown, in vitro", "conditions": "not given, k-mer, scored over probes, only values ≥0.25", "scale": "higher = stronger binding", "measurement": "E-score", "value": 0.273}
{"Molecule": "GGGGGTAA", "target": "MXD1 bHLH-zipper, MAX partner unstated", "test": "protein-binding microarray", "system": "double-stranded DNA, one strand shown, in vitro", "conditions": "not given, k-mer, scored over probes, only values ≥0.25", "scale": "higher = stronger binding", "measurement": "E-score", "value": 0.35}
{"note": "Repeated from above (mixed results):"}
{"Molecule": "CCGTCACG", "target": "MNT bHLH-zipper, MAX partner unstated", "test": "protein-binding microarray", "system": "double-stranded DNA, one strand shown, in vitro", "conditions": "not given, k-mer, scored over probes, only values ≥0.25", "scale": "higher = stronger binding", "measurement": "E-score", "value": 0.278}
{"Molecule": "CCATGAGG", "target": "MNT bHLH-zipper, MAX partner unstated", "test": "protein-binding microarray", "system": "double-stranded DNA, one strand shown, in vitro", "conditions": "not given, k-mer, scored over probes, only values ≥0.25", "scale": "higher = stronger binding", "measurement": "E-score", "value": 0.391}
